Results pooled from the literature.
Each numbered part is a random draw from the data of one study; scales do not carry over between parts. Numbers after ± are the reported error.

Sample 1 — form: peptide; medium: human polyclonal IgM RF AGER; tested at: concentration not given; setting: 5 µg/mL mAb II-481 coated; together with: RF at 50% max binding concentration
Molecule | inhibition
AAEDWCKKGDT | 0%
NYLAWYQ | 45%
CIKVAVS | 0%
SQSVLYS | 12%
YFCHQYL | 44%
LIYWAST | 32%

Sample 2 — Molecule: UGT1A9 (Homo sapiens, UniProt O60656); technique: steady-state kinetics; pH: 7.4; temperature: 37 °C
Chain of UniProt O60656 (whole entry, looked up): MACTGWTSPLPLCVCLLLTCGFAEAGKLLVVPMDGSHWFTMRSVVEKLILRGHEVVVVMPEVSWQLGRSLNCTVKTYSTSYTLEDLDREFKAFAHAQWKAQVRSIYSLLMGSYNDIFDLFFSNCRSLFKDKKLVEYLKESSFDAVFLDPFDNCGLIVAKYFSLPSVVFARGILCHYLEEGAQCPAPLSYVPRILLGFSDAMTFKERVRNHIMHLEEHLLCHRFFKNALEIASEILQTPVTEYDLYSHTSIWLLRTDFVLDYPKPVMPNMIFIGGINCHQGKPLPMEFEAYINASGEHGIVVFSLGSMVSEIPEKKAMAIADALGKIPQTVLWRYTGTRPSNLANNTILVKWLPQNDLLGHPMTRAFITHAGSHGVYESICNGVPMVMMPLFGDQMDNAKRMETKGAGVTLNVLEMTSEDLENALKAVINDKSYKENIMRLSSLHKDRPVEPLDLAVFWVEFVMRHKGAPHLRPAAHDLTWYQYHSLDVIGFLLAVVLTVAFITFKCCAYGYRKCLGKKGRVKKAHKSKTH
substrate | Vmax
COc1cc(-c2cc(=O)c3c(O)cc(O)cc3o2)cc(OC)c1OC | 0.000382 µmol/min/mg
Cc1ccc2oc(-c3ccccc3)c(O)c(=O)c2c1 | 0.00675 µmol/min/mg
O=c1cc(-c2ccc(O)cc2)oc2cc(O)cc(O)c12 | 0.00329 µmol/min/mg

Other studies, line by line
B1: α-TTP F165D; sequence looked up; chain MAEARSQPSAGPQLNALPDHSPLLQPGLAALRRRAREAGVPLAPLPLTDSFLLRFLRARDFDLDLAWRLLKNYYKWRAECPEISADLHPRSIIGLLKAGYHGVLRSRDPTGSKVLIYRIAHWDPKVFTAYDVFRVSLITSELIVQEVETQRNGIKAIFDLEGWQDSHAFQITPSVAKKIAAVLTDSFPLKVRGIHLINEPVIFHAVFSMIKPFLTEKIKERIHMHGNNYKQSLLQHFPDILPLEYGGEEFSMEDICQEWTNFIMKSEDYLSSISESIQ
B2: α-TTP F165A; sequence looked up; chain MAEARSQPSAGPQLNALPDHSPLLQPGLAALRRRAREAGVPLAPLPLTDSFLLRFLRARDFDLDLAWRLLKNYYKWRAECPEISADLHPRSIIGLLKAGYHGVLRSRDPTGSKVLIYRIAHWDPKVFTAYDVFRVSLITSELIVQEVETQRNGIKAIFDLEGWQASHAFQITPSVAKKIAAVLTDSFPLKVRGIHLINEPVIFHAVFSMIKPFLTEKIKERIHMHGNNYKQSLLQHFPDILPLEYGGEEFSMEDICQEWTNFIMKSEDYLSSISESIQ
Molecule | tested on | test | system | conditions | endpoint | result
B1 (α-TTP F165D) |  | binding, dual polarization interferometry | immobilized phospholipid bilayer | 20 °C | Kd | 4.99 ± 1.9 µM
CARLSLSWRGLTLCPSK (68Ga-DOTA-labelled) | mouse VAP-1 | ex vivo biodistribution | peptide, wild-type mouse, B16 melanoma xenograft, tumour | 60 min, together with: 500-fold excess unlabelled DOTA-peptide | uptake | 0.17 ± 0.02 SUV
B2 (α-TTP F165A) |  | binding, dual polarization interferometry | immobilized phospholipid bilayer | 20 °C | Kd | 2.11 ± 0.61 µM

A few entries again (other studies, line by line):
Molecule | tested on | test | system | conditions | endpoint | result
CARLSLSWRGLTLCPSK (68Ga-DOTA-labelled) | mouse VAP-1 | ex vivo biodistribution | peptide, wild-type mouse, B16 melanoma xenograft, tumour | 60 min, together with: 500-fold excess unlabelled DOTA-peptide | uptake | 0.17 ± 0.02 SUV
